Assay results pooled from the literature.
Protocols differ between the studies behind these lines. ± marks the error that the study gave.

CC1(C)C2CCC1(C)C(OC(=O)C(O)Cc1ccc(O)c(O)c1)C2 (stereo not shown)
SOD level (C57BL/6 mouse, transient cerebral ischaemia/reperfusion, brain; intravenous, 12 mg/kg, dosed immediately after reperfusion; baseline: untreated ischaemic mice): increased

CC(C)C[C@H](NC(=O)[C@H](CO)NC(=O)[C@H](CCCNC(=N)N)NC(=O)[C@H](CC(=O)O)NC(=O)[C@H](CCC(=O)O)NC(=O)[C@H](C)NC(=O)[C@@H]1CCCN1C(=O)[C@H](C)NC(=O)[C@H](CCC(=O)O)NC(=O)[C@@H]1CCCN1C(=O)[C@@H]1CCCN1)C(N)=O
DOPAC level (HPLC-EC; rat F344, unilateral 6-OHDA lesion, contralateral striatum; intranasal, 300 µg daily, 5 weeks post lesion): 2420 ± 241 ng/g

COCCOCCOc1ccc(C2=N[C@@](C)(C(=O)O)CS2)c(O)c1
duration of iron excretion (bile duct-cannulated rats, non iron-overloaded, bile; oral, 300 µmol/kg): > 48 h

O=c1cc(CO)occ1O
pigmentation inhibition (zebrafish AB wild type, head melanin; 60 µM, 45 h, from 6 hpf): 18.5 ± 6.11%

O=C1c2cccc(O)c2C(=O)c2c(O)cc(CO)cc21
lowest effective concentration (cell proliferation, CellTiter-Glo; cord blood CD34+ cells, human; 24 h, lowest dose with significant inhibition; baseline: vehicle): 250 to 500 µM

Cn1cc(-c2c[nH]c3ncnc(N4CCOCC4)c23)cc1C#N
plasma concentration at full LRRK2 dephosphorylation (measured: pS935-LRRK2; rat, non-transgenic, lung; in diet, 3 days): > 10 nM

Polymyxin B
IL-6 release (human whole blood; 500 ng/mL, 4 h, 37 °C, together with: E. coli LPS 0.5 ng/mL; baseline: LPS without compound): 8.4 ± 4.5%

CC1CNc2c(cccc2S(=O)(=O)N[C@@H](CCCNC(=N)N)C(=O)N2CC[C@@H](C)C[C@@H]2C(=O)O)C1 (stereo partly shown)
EC50 (platelet activation, inhibitor, ATP release; human platelet-rich plasma; 20% plasma, together with: thrombin): 33 nM

CC1(C)CC(C)(C)c2cc(N/C(S)=N/c3ccc([N+](=O)[O-])cc3)ccc2S1
plasma ccK18 level (mouse; oral, 60 mg/kg once daily, 4 to 6 h after dosing): > 1000 U/L

Cc1ccc(NC(=O)c2ccc(CN3CCN(C)CC3)cc2)cc1Nc1nccc(-c2cncc(-c3oncc3C)c2)n1
MDS-UPDRS part III score (mild-to-moderate Parkinson's disease patients; oral, 50 mg once daily, day 7, practically defined OFF state; direction not given): 34.3 ± 10.7

For quick reference, copied from above:
CC(C)C[C@H](NC(=O)[C@H](CO)NC(=O)[C@H](CCCNC(=N)N)NC(=O)[C@H](CC(=O)O)NC(=O)[C@H](CCC(=O)O)NC(=O)[C@H](C)NC(=O)[C@@H]1CCCN1C(=O)[C@H](C)NC(=O)[C@H](CCC(=O)O)NC(=O)[C@@H]1CCCN1C(=O)[C@@H]1CCCN1)C(N)=O
DOPAC level (HPLC-EC; rat F344, unilateral 6-OHDA lesion, contralateral striatum; intranasal, 300 µg daily, 5 weeks post lesion): 2420 ± 241 ng/g
